Measured values pooled from the literature.
Compare with care: the assays were run in different laboratories. ± marks the error that the study gave.

| Molecule | assay | system | conditions | scale | measurement | result |
| --- | --- | --- | --- | --- | --- | --- |
| Cc1ccc(NC(=O)c2ccc(CN3CCN(C)CC3)cc2)cc1Nc1nccc(-c2cncc(-c3oncc3C)c2)n1 |  | mild-to-moderate Parkinson's disease patients | oral, 50 mg once daily, day 7, on anti-Parkinson medication | direction not given | NMSS score | 28.3 ± 19.5 |
| c1ccc(-c2ncc3cc(-n4ccnc4)ccc3n2)cc1 | Randall-Selitto test | rat, capsaicin hyperalgesia | oral, 30 mg/kg, 1 h |  | paw withdrawal threshold | 239 ± 12 g |
| SIYNFEKL | flow cytometry, measured: CD44hi CD8+ T cells | peptide, OT-I CD8+ T cells, mouse | 1 µg/mL loading, primed 5 days, restimulated 100 ng/mL OVA257, with: no TGF-β1 |  | triple cytokine producers | 47% |
| CC[C@H](C)[C@H](NC(=O)[C@H](CCC(N)=O)NC(=O)[C@H](Cc1c[nH]cn1)NC(=O)[C@H](C)NC(=O)[C@H](CC(C)C)NC(=O)[C@H](CCCCN)NC(=O)[C@H](CCC(N)=O)NC(=O)[C@@H](NC(=O)[C@@H](NC(=O)[C@@H]1CSSC[C@H](NC(=O)CNC(=O)[C@H](Cc2ccccc2)NC(=O)[C@H](CO)NC(=O)[C@H](CCCNC(=N)N)NC(=O)[C@H](CC(C)C)NC(=O)CNC(=O)[C@H](CCC(N)=O)NC(=O)[C@H](Cc2ccccc2)NC(=O)[C@H](CC(N)=O)NC(=O)[C@H](CC(N)=O)NC(=O)[C@H](CCSC)NC(=O)[C@H](CO)NC(=O)[C@H](CCC(N)=O)NC(=O)[C@H](CCCNC(=N)N)NC(=O)[C@@H](N)Cc2ccc(O)cc2)C(=O)N[C@@H](CCCNC(=N)N)C(=O)N[C@@H](Cc2ccccc2)C(=O)NCC(=O)N[C@@H]([C@@H](C)O)C(=O)N1)[C@@H](C)O)C(C)C)C(=O)N[C@@H](Cc1ccc(O)cc1)C(=O)N[C@@H](CCC(N)=O)C(=O)N[C@@H](Cc1ccccc1)C(=O)N[C@H](C(=O)N[C@@H](CC(=O)O)C(=O)N[C@@H](CCCCN)C(=O)N[C@@H](CC(=O)O)C(=O)N[C@@H](CCCCN)C(=O)N[C@@H](CC(=O)O)C(=O)N[C@@H](CC(N)=O)C(=O)N[C@H](C(=O)N[C@@H](C)C(=O)N1CCC[C@H]1C(=O)N[C@@H](CCCNC(=N)N)C(=O)N[C@@H](CO)C(=O)N[C@@H](CCCCN)C(=O)N[C@H](C(=O)N[C@@H](CO)C(=O)N1CCC[C@H]1C(=O)N[C@@H](CCC(N)=O)C(=O)NCC(=O)N[C@@H](Cc1ccc(O)cc1)C(N)=O)[C@@H](C)CC)C(C)C)[C@@H](C)O |  | patients, biologic-resistant Crohn's disease | intravenous infusion, 10 ng/kg/min, 24 weeks, unit not given, with: biologic | reference: baseline | change in CDAI | -82 ± 56 |
| Polymyxin B |  | human whole blood | 50 ng/mL, 4 h, 37 °C, with: E. coli LPS 0.5 ng/mL | reference: LPS without compound | IL-8 release | 59.1 ± 19.4% |
| CCCn1cnc(C[C@H](NC(=O)[C@@H]2CCC(=O)C2)C(=O)N2CCC[C@H]2C(N)=O)c1 |  | Swiss albino mice | intravenous, 10 µmol/kg, with: pentobarbital | reference: control | decrease in sleeping time | 61.6% |
| C[C@H]1C[C@H]2CSC(N)=N[C@@]2(c2nc(NC(=O)c3ccc(OC(F)F)cn3)cs2)CO1 | measured: CSF Aβ1–42 | healthy adults | 125 mg once daily, 14 days, day 15 | reference: placebo-adjusted baseline | change from baseline | -84.8% |
| SIIVFEKL | flow cytometry, measured: CD44hi CD8+ T cells | peptide, OT-I CD8+ T cells, mouse | dose not given, primed 5 days, TGF-β1 from day 2 onward, with: 20 ng/mL TGF-β1 |  | cytokine-negative cells | 49.5% |
| PACAP | measured: BDNF | APP V717I transgenic mouse | intranasal, dose not given, 3 months | reference: vehicle | mRNA level | 154 ± 15.7% |
| Cc1c(-c2nnc(SC/C(=N/O)c3ccccc3)n2-c2ccccc2)nnn1-c1ccc(S(N)(=O)=O)cc1 | Griess | phosphate buffer-methanol | 100 µM, 1 h, pH 7.4, 37 °C, with: N-acetylcysteine 0.5 mM | reference: theoretical maximum release | NO released | 1.52% |

Some of these lines once more:
| Molecule | assay | system | conditions | scale | measurement | result |
| --- | --- | --- | --- | --- | --- | --- |
| Cc1c(-c2nnc(SC/C(=N/O)c3ccccc3)n2-c2ccccc2)nnn1-c1ccc(S(N)(=O)=O)cc1 | Griess | phosphate buffer-methanol | 100 µM, 1 h, pH 7.4, 37 °C, with: N-acetylcysteine 0.5 mM | reference: theoretical maximum release | NO released | 1.52% |
